Measurements collected from several papers.
Every numbered part comes from another study and shows a few of its results, in no order. Positions count from the first letter of the parent shown.

Series 1
Target: CEP164, C-terminal peptide (human)
Method: DHFR complementation, deep sequencing
Sample: yeast
Notes: single substitutions, model-inferred values
Reference: wild type
Reading: higher = weaker binding
Measurement: binding free energy change
Starting sequence: PDZK1, PDZ domain 2 (human); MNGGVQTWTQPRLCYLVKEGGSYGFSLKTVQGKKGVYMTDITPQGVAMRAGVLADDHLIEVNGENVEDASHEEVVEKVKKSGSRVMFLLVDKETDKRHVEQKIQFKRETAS; partner HNRVKVYRF
F25T: 5.93 kJ/mol
D56Y: 1.73 kJ/mol
Y37S: 2.43 kJ/mol
K77F: 1.14 kJ/mol
W8L: -0.351 kJ/mol
G35P: 2.18 kJ/mol
E93T: -0.455 kJ/mol
E73T: 0.35 kJ/mol
R97L: -0.624 kJ/mol
E60F: 2.05 kJ/mol
T94Q: -0.528 kJ/mol
R49E: 1.89 kJ/mol
E93W: -0.665 kJ/mol
I59A: 3.38 kJ/mol
D40G: 3.29 kJ/mol
G51F: 2.66 kJ/mol
R97V: -0.313 kJ/mol
V46G: 4.82 kJ/mol
D68N: -0.15 kJ/mol
K33L: 0.758 kJ/mol
K92W: 0.306 kJ/mol
Q6I: 0.125 kJ/mol
S22C: 1.15 kJ/mol
S111A: -0.616 kJ/mol
M1P: -1.02 kJ/mol

Series 2
Target: RING finger protein unkempt homolog, zinc fingers 1-6, GST-SBP tag (UNK, Homo sapiens, UniProt Q9C0B0, residues 30-357)
Sequence of UniProt Q9C0B0 (30-357, looked up): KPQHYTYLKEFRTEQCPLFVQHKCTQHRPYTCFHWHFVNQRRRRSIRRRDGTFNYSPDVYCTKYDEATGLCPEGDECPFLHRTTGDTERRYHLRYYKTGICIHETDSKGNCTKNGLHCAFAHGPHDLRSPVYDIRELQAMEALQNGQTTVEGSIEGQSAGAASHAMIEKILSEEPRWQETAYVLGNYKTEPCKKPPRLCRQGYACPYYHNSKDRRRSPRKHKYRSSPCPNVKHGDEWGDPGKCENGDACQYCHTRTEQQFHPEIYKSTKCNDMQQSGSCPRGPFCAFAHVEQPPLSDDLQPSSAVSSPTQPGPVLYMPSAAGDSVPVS
Method: RNA Bind-n-Seq
Molecule type: RNA
Sample: in vitro
Tested at: not given
Notes: RNA with constant flanks, human and mouse sites, ends assumed
Reference: input RNA pool
Reading: higher = stronger binding
Measurement: bound/input enrichment
Shared flanks, not repeated: GGGAGUUCUACAGUCCGACGAUC … CAACAGAGGAUUGAGCAUCA
AUAUAGACCUAUGAUGUACAGGUACAACAUGUAUAGGUUACGUAGAUAUUAUGAGAAAUUUUAGUUUAUUGUGAGUACUCCAGUUGCUUUAAAAACCACCAGGGUGAUUUGCUGCUGGCU: 63.8 ratio
AUUCGCCUUUGUCUUGUACUUCUGUGUUCAUUCUCCUCCCCCACCCCCAAUUUUUGCUAGUGUGUCCACUAUCCCAAUCAAAGAAUUACAGUAUACGUCACCCCAGAACCCGCAGAUGUG: 0.916 ratio
AAGAUGUGAAAUUUGUCAUCAAUUAUGACUACCCUAACUCCUCAGAGGAUUAUAUUCAUCGAAUUGGAAGAACUGCUCGCAGUACCAAAACAGGCACAGCAUACACUUUCUUUACACCUA: 0.282 ratio
CUGAAGGGGAAAGUUAUCCUCUUUUUGCCCAAGUCACACUUGUGUCAUUUCUUAUACUGUAAACAUGUGGUUCCAAUUCUGAGGUAUUUUCCCGGUUUGUAGGACCCAAAAAGAAGUUAG: 0.594 ratio
GCUUCCCCGGGGUGACCGCGACUUGUUGGAGAUCUGAUGGCCAAAAGAAAGGAAGAAAAUUUCUGCUCUCCUGAAAAUGCUAAAAGACCAAGACAAGAAGAACUGGAAGAUUUUGAUAAA: 0.162 ratio
AAUUCCAAGGGUUAUACCAAGUCCAUUGAUAUUUGGUCUGUGGGCUGCAUCCUGGCAGAGAUGCUAUCCAACAGGCCUAUCUUCCCAGGAAAGCAUUACCUUGACCAGCUGAAUCACAUC: 0.15 ratio
AAACAAGAGACCCUCCCUCCCGGCCAUGUUCCUUGCGGCAGUUGGUGAACUGAGUCUGUAAAUAGGGCCCUACCGGUUUUUGUUUUUGUUUUGUUUUGUUUUUCUGUAGGCCUGCAUUGU: 0.81 ratio
CAUCUGCAGGAUAUUAAAGUGAAGUUUUCAGACCCUGGACAACCUAUGUCUUUUGUGCUAGAGUUUCACUUUGAACCCAACGACUACUUCACCAAUCCUGUCCUGACGAAAACGUACAAG: 0.122 ratio
GACUCCGCGGGGAGGGCAGUAGAGGACGGUCUGAUGUUACAGGAUUUGGUUUCAGCCAAGCUGAUUUCCGAUUACAUUGUUGUUGAGAUUCCUGACUCUGUUAAUGAUUUACAAGGCACA: 0.283 ratio
GCACGUACAGCCCUGAAUGCAGGUGCAGUUUGGGUUUUUUGUUUUGUUUUGUUUUGUUUUAUUAGCCAGUGGGCAAAGUGAAAUGUAAUUUUGGGUAAGCCAGGGCUACUUUAGCUUUUC: 0.442 ratio
GUCCCGCCCACCCUCCUUUUCCCUGCACCCUGAGAUCCUGUCUGAGGAGGAAGCUACCCAGAUGGAUCAGUUUGGGCAGGCAGCAGGGGGCCUCAUUCACAGCAUUCGGGAGAUAGCACA: 0.339 ratio

Series 3
Target: RNA binding protein fox-1 homolog 2, RRM domain, GST-SBP tag (RBFOX2, Homo sapiens, UniProt O43251-10, residues 100-194)
Method: RNA Bind-n-Seq
Molecule type: RNA
Sample: in vitro
Tested at: 365 nM
Notes: natural RNA segment, single round, ends assumed
Reference: no-protein control
Reading: higher = stronger binding
Measurement: RBNS enrichment (R)
Shared flanks, not repeated: GGGAGUUCUACAGUCCGACGAUC … UGGAAUUCUCGGGUGCCAA
Target sequence (chain): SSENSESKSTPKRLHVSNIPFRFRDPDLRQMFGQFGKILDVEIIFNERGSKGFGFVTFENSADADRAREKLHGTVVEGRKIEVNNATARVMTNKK
GCCCUGGAGGCUCCCAUGUGCUUGAGGAAGGCUGGUGAGCCCGGCUCAGGACCCUCUUCCCUCAGGGGCUGCACCCUCCUCUCACUCCCUUCCAUGCCGGAACCCAGGCC: 0.49
AAGUUGUUGUGUUUUUUUUUAAAUAGUAGUUUGUAGUAUUUUAAAGAAAGAACAGAUCGAGUUCUAAUUAUGAUCUAGCUUGAUUUUGUGUUGAUCCAAAUUUGCAUAGC: 4.32
GCCACAUGCUUGCUGAAGAGACUUGUUUUCUUCUUCUAAGACAGUGGUUUUGUUUUUUGGGUUUUUUAAAAAAAAAAAAAAAACACACACAAAAAACACUUUUUCUAUUG: 0.408
ACUGGCCACCCCCUGCUUCCCAGAGUGAAACCUUGUGCCUGGUGACCAAAGUCCCUCCAAAGUGCUCUUCCUUCUGGGUUAUUCAAGCCAAAUAUCUGGGUUUCCCCCUC: 0.36
GUGUCUCUAGAUCCAGGCCUUCAAUGUGACUGGUGAACAGUUCUCCUAUGCUAGCGACUGUGCUGGUUUCUUCUCUCCGGGCAUCUGGAUGGGUCUGCUCACCACCCUCU: 0.664
UUUUCAUCAGGAAAGGAGCACUGUGGGAAGAGCCCAGUAUUCACAUUUUUUCCCCAUUUUUCAGAAGCGACAUUUCAUAUAUAGGUGCCAAAAGUGAAUCGGGGUGCGGA: 0.159
AAAAAUAUGUAAUAUUUGGACCAGAUGUUGUGAAUAAUAGUAGAGAUAAAGCUAUUUUAUUCUGUAUUUUUAAAACUGUUCCGUACAAAUAAAAGCUCUCCUGGACACAG: 0.385
UUAUUUUAAAUGCAAUCAGGUAGUGUUGCUUUUUACAGCAUAAUAAAUAUAUGUAUCAAAAAAAAAACUGUGUGGAAAAAAUGAAUUUUCUUAAAACAAUUAAGAGCCAG: 0.942
GGCCGUGGCACUGGUGCCAGUACUUUGAAAGAUGGGGUGCAGCCUACACACUUACCUGUCUCAGACUCACAUGUACUAUCAUCUGAUGUACUCUGAUUGGCUAGUUUGGG: 0.24
UGGGGAAGUCUCAUGUAACUCAGAACACUAUCCUGGUCCCAGGCUACACUGUGCACUACGUCUUUAGGGUUGUUUAUUUCACUGCGGGUCAUUUUCUGAUUCUUGUUGUU: 0.331
AGGGCACGGAAAAUCUUAUGCUGCUCCGUCAUAAACCUACACCAAUGCCCAGCAAUCACCCUCCUCACUUCCUUGUCUAGAUGUAGAGGUCAGGCUGCUGAACCAGCCAA: 0.334
GAAAAGGGAGUAAAGGAAAAAAGAGGUCAACCACUGUUUCUGAUAAUGUACUUGAGUUUCAUUGUUCUUUUAGUUUGUAUUCUUAUAAAAAAUGUUUACACUCUGCAGAU: 0.412

Series 4
Target: PABPC1L2, full length, GST fusion (mouse, UniProt A0ABA7IW68)
Method: RNAcompete
Molecule type: RNA
Sample: in vitro
Tested at: 20 nM
Notes: 7-mer, probes averaged, single round
Reference: mean of 7-mers
Reading: higher = stronger binding
Measurement: 7-mer Z-score
Residues (chain): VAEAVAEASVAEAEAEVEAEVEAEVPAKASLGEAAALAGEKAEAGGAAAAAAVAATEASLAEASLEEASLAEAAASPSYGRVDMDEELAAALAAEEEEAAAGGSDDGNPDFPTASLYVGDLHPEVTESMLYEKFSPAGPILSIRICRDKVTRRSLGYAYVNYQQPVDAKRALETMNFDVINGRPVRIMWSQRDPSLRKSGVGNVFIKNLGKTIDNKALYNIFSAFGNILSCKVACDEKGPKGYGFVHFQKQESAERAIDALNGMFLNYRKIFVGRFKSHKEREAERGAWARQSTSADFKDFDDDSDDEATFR
AGAUCGG: -0.104
UAUUACC: -0.226
GUAAGCC: -0.356
UAUCGAC: -0.211
UUAAGGC: 0.108
GGCGGCC: -0.26
UUGGUCU: -0.421
ACGAACG: -0.139
GAGAGGA: 0.354
GACGUUG: -0.208
GAUAUAG: -0.182
CCCCAGG: -0.394
AUACGUU: -0.213
CCGAUCC: -0.342
GCUGUUG: -0.374
GAGCGUU: -0.335

Series 5
Target: Sal-like protein 4, full length isoform A (SALL4, Homo sapiens, UniProt Q9UJQ4, residues 1-1053)
Sequence of UniProt Q9UJQ4 (whole entry, looked up): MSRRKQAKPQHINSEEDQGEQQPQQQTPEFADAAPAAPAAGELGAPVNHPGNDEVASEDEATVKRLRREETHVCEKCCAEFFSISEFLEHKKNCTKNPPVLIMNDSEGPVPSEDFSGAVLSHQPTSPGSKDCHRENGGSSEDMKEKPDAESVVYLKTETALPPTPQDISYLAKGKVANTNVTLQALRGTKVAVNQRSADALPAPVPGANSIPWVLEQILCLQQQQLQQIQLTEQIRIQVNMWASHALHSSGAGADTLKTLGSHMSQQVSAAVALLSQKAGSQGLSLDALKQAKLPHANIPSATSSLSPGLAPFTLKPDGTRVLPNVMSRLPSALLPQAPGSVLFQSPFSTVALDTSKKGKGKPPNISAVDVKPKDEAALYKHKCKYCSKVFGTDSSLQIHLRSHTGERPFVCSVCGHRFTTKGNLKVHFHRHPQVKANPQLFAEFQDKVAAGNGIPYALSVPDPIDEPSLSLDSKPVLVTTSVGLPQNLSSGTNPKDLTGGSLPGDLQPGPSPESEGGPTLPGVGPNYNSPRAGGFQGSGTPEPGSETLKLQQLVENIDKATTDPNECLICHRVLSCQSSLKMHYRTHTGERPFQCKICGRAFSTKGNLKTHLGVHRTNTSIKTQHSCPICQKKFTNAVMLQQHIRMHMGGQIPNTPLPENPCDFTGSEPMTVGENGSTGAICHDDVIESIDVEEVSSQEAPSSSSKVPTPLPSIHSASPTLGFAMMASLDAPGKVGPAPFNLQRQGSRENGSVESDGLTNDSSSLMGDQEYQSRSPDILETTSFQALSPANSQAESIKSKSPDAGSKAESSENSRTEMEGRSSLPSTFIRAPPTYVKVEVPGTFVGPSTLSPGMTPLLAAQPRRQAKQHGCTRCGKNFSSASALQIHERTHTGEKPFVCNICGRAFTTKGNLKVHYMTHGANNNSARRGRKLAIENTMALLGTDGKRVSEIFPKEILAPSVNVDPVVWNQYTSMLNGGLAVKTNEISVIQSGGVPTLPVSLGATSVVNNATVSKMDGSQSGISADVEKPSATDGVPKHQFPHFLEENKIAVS
Method: universal PBM
Molecule type: double-stranded DNA, one strand shown
Sample: in vitro
Tested at: 600 nM
Notes: 8-mer, flanks averaged, mean of replicates
Reading: higher = stronger binding
Measurement: E-score
GGATGCGA: -0.0748
CTAAGTTC: -0.219
AGGCTAAG: -0.208
CCGCGACC: -0.368
ATGGAGGA: 0.0865
AGCATACA: 0.191
CGCCCCCC: -0.422
AAGACTCG: -0.0743
ACGTACCA: -0.0405
AGGCGTGG: -0.373
GATGATCC: -0.0754
GTTCACCA: -0.131
CCGATCCC: -0.35
ACGCGTTG: -0.0482
ACGTAACT: -0.0346
CGGTGCGA: -0.298
CACTTACA: 0.173
AGCTTGTA: 0.0532
CCCGCCAG: -0.236
CGTCCTAC: -0.186
CCTAGAAG: -0.0793
TCTATAGA: 0.194
CATCTTCA: 0.0418
GCTATCGA: -0.0358
ACAATCGA: 0.0837

A few entries again (series 1):
F25T: 5.93 kJ/mol
K77F: 1.14 kJ/mol
Q6I: 0.125 kJ/mol
M1P: -1.02 kJ/mol
R97V: -0.313 kJ/mol
E93T: -0.455 kJ/mol
K33L: 0.758 kJ/mol
Y37S: 2.43 kJ/mol
E60F: 2.05 kJ/mol
G51F: 2.66 kJ/mol
D40G: 3.29 kJ/mol
E93W: -0.665 kJ/mol
G35P: 2.18 kJ/mol
V46G: 4.82 kJ/mol
